Published values gathered from unrelated publications.
Compare with care: the assays were run in different laboratories. Several values in a cell are separate wells, animals, samples, runs or records.
UniProt P10635, sequence (whole entry, looked up): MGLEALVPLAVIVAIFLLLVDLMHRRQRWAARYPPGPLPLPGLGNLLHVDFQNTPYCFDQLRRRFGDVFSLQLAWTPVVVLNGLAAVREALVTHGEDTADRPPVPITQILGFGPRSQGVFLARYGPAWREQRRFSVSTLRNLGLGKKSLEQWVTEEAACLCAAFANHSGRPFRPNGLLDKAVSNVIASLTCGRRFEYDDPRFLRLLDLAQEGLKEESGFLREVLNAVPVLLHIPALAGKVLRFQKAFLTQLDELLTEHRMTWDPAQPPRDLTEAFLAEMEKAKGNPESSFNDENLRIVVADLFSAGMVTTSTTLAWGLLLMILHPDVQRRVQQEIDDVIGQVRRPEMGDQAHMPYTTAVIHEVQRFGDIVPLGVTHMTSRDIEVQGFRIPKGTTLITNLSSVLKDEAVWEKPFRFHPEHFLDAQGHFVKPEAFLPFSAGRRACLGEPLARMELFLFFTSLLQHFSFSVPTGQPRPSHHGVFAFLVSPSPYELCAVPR

O=C1C2CC3CC1CC(C(=O)N1CCN(c4ccc([N+](=O)[O-])c5ncccc45)CC1)(C3)C2 — mean revertant colonies (Salmonella typhimurium; Ames test; TA98; 0.02 µg/well, with S9): 8 colonies/well
CCN(CC)CC#CCNc1ccnc2cc(Cl)ccc12 — revertants (Salmonella typhimurium; mini-Ames test; TA100; 250.0 µg/well, with rat liver S9): 23 revertants/well and 19 revertants/well
O=C([O-])CN1CCN(CC(=O)[O-])CCN(Cc2cccc(C(=O)[O-])n2)CC1.[177Lu+3] — tracer uptake (mouse, heart; intravenous, 1 h): 0.22 %ID/g
Nc1nc(-c2ccc(OC(F)(F)F)cc2)nc2[nH]nc(Nc3ccccc3)c12 — CC50 (HeLa Ohio; 72 h): > 518 µM
CC(C)OCCOCc1ccc(OCC(O)CN(N=O)C(C)C)cc1 (stereo not shown) — revertant fold increase (Escherichia coli; Ames test; WP2 uvrA; 5 µg/plate, 30 % rat S9; reference: solvent control): 0.9 fold
COc1ccc(Nc2n[nH]c3nc(-c4ccccc4)nc(N)c23)cc1OC — CC50 (HeLa Ohio; 72 h): 76.4 µM
CN(Cc1ccccc1)C(=O)CN1CCN(CC(=O)[O-])CCN(Cc2cccc(C(=O)[O-])n2)CC1.[177Lu+3] — tracer uptake (mouse, bone; intravenous, 1 h): 0.43 %ID/g
Nc1nc(-c2ccccc2)nc2[nH]nc(Nc3ccc([N+](=O)[O-])cc3)c12 — CC50 (HeLa Ohio; 72 h): > 144 µM
OC(Cc1cc(-c2ccc(C(O)C(F)(F)F)s2)sc1-c1ccc(-c2sc(-c3ccc(C(O)C(F)(F)F)s3)cc2CC(O)C(F)(F)F)s1)C(F)(F)F (stereo not shown) — amount in cell extract (primary human fetal neurons; LC-MS/MS; 4 µM, 30 min, replicate 3): 0.02 nmol and 0.01 nmol
CNC(=O)C1CCCN(C(=O)C2CC3CCC2N3C(=O)[C@@H]2C[C@@H](O)CN2C(=O)NCc2cccc(Cl)c2F)C1 (mixture of isomers) — remaining activity (Cytochrome P450 2D6 (CYP2D6, Homo sapiens, UniProt P10635); enzyme activity, inhibitor, time-dependent inhibition; 0.617 µM, preincubated without NADPH; reference: negative control): 104%

For quick reference, copied from above:
CN(Cc1ccccc1)C(=O)CN1CCN(CC(=O)[O-])CCN(Cc2cccc(C(=O)[O-])n2)CC1.[177Lu+3] — tracer uptake (mouse, bone; intravenous, 1 h): 0.43 %ID/g
